# Assay results pooled from the literature.
# Each numbered part is a random draw from the data of one study; scales do not carry over between parts.

# Study 1
# Target: PABPC1L2, full length, GST fusion (mouse, UniProt A0ABA7IW68)
# Technique: RNAcompete
# Molecule type: RNA
# Sample: in vitro
# Concentration: 20 nM
# Setting: 7-mer, probes averaged, single round
# Reference: mean of 7-mers
# Direction: higher = stronger binding
# Target sequence (chain): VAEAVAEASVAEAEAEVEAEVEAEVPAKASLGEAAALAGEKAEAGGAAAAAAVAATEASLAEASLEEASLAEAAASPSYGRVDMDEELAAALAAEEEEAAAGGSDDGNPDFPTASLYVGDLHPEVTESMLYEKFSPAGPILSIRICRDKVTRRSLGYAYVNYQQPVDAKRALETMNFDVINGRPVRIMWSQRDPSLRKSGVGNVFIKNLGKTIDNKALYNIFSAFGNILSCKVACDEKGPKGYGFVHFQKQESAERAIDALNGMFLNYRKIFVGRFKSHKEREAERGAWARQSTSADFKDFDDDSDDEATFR
Strand,7-mer Z-score
CUCGUCG,-0.512
CUCACGU,-0.282
CAUUGGU,-0.162
GUCCAUC,-0.296

# Study 2
# Cell line: HEK-293T
# Observed: pseudovirus infection
# Technique: FDA-approved drug library screen
# Organism: VSV pseudotyped with SARS-CoV-2 spike
# Concentration: 10 µM
# Time: 16 h
# Reference: vehicle-treated
Structure (SMILES),GFP-positive cells
CCCOc1ccc(C(=O)OCCN(CC)CC)cc1N,128%
COc1cc(C(C)=O)ccc1OCCCN1CCC(c2noc3cc(F)ccc23)CC1,76.9%
CCc1cccc2c3c([nH]c12)C(CC)(CC(=O)O)OCC3 (centres unmarked),79.7%
O=S(=O)(O)CCS,106%

# Study 3
# Target: Replicase polyprotein 1ab, main protease (rep, Severe acute respiratory syndrome coronavirus 2, UniProt P0DTD1)
# Observed: enzyme activity
# Mode: inhibitor
# Concentration: 20 µM
# Setting: hit confirmation
Structure (SMILES),inhibition
Nc1nc(=S)c2ncn(C3OC(CO)C(O)C3O)c2[nH]1 (centres unmarked),111%
Nc1nc(Nc2ccc3c(c2)CC[C@@H](N2CCCC2)CC3)nn1-c1cc2c(nn1)-c1ccccc1CCC2,-21.2%
CC/C=C\C/C=C\C/C=C/C/C=C\C/C=C\C/C=C\CCC(=O)OCC,-3.2%
N=C(N)c1cc2ccc(OC(=O)c3cccs3)cc2s1,23.2%

# Study 4
# Target: Histone acetyltransferase KAT6A, winged helix 1, GST fusion (KAT6A, Homo sapiens, UniProt Q92794, residues 1-85)
# Technique: protein binding microarray
# Molecule type: double-stranded DNA, one strand shown
# Sample: in vitro
# Concentration: not given
# Setting: 8-mer, flanks averaged, mean of 2 arrays, mostly near background
# Reference: not given
# Direction: higher = stronger binding
# Construct (chain): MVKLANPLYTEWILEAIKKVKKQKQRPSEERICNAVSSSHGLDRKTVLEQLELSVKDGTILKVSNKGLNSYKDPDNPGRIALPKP
Strand,E-score
ACACCCAG,-0.286
TACCCATA,-0.21
CAGCTACG,-0.0834
AGCTTTGA,-0.0905
ACAGGCCG,0.132
GGTGGTGA,0.0604
AACGTTCC,0.157
CAAAAATG,-0.093

# Study 5
# Target: Phosphate system positive regulatory protein PHO4, full length, GST-tagged (PHO4, Saccharomyces cerevisiae, UniProt P07270, residues 1-312)
# Technique: competition protein-binding microarray
# Molecule type: double-stranded DNA, one strand shown
# Sample: in vitro
# Concentration: 2 µM
# Setting: whole 60-bp probe, lowest competitor level
# With: Cbf1 competitor, 0.05 µM
# Direction: higher = stronger binding
# All sequences stand within: … GTCTTGATTCGCTTGACGCTGCTG
# Residues (chain): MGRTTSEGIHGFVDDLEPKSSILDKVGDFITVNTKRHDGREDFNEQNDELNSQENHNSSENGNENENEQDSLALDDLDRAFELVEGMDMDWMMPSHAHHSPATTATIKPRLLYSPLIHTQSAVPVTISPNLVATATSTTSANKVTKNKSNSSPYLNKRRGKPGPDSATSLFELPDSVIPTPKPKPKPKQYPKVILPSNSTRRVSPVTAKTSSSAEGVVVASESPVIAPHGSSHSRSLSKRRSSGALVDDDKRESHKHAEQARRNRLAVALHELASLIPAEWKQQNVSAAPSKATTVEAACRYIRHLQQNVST
Strand,fluorescence intensity [a.u.]
CTTTCCCGATCTTGTCACAGTACTTTAGCACATTTG,4160
CACACTGCGGGGTTACCCGTGTAACGTAGAATAAAA,5770
AAATTACTAAGTTGGCCCGTGGGTGACGCCGTATGA,8580
CTTTCCCGATCTTGAACTGTGGGTGTAGCACATTTG,4270
CTTCTGTAAATTTGACCTGTGGGTGGACGCGCCCCG,4340
CGTCCTAGTGATTGGTACGTGGGTGCCATGAGGAAG,8890
CCGCACTCCTCTCCACACGGGATTCTCACCCTCTAT,7430
TACTAATAGGCGTCCCACGTTTGAATTTCTTTTTTT,10300

# Study 6
# Target: Replicase polyprotein 1ab, polymerase (rep, Severe acute respiratory syndrome coronavirus 2, UniProt P0DTD1)
# Observed: enzyme activity
# Mode: inhibitor
# Concentration: 20 µM
Compound,inhibition [%]
Cc1cccc(C(C)c2c[nH]cn2)c1C (centres unmarked),-8.34
C[C@@H](Oc1cc(-n2cnc3ccc(CN4CCN(C)CC4)cc32)sc1C(N)=O)c1ccccc1C(F)(F)F,2.11
CCCn1c(=O)c2[nH]cnc2n(-c2ccc(Cl)cc2)c1=O,1.99
Nc1nc2c(c(=O)[nH]1)C[C@@H](CCc1ccc(C(=O)N[C@@H](CCC(=O)O)C(=O)O)cc1)CN2,5.56
CC(C)C[C@H](N)C(=O)O,1.21
O=C(/C=C/c1ccccc1)NC(NC(=S)Nc1ccc(Cl)cc1)C(Cl)(Cl)Cl (centres unmarked),0.99
O=C(CCCN1CCC2(CC1)C(=O)N(Cc1cccc(F)c1)CN2c1ccccc1)c1ccc(F)cc1,-4.72
CCCC(CCC)C(=O)O[C@H]1C[C@H]2CC[C@@H](C1)[N+]2(C)C,-4.09
CN1CCN(c2nc3ccccc3nc2Cl)CC1,-1.32
C[C@H](/C=C/[C@H](C)C(C)(C)O)[C@H]1CC[C@H]2/C(=C/C=C3C[C@@H](O)C[C@H](O)C3)CCC[C@]12C,1.97
CNC[C@H](O)[C@@H](O)[C@H](O)[C@H](O)CO,1.24
C=CC(=O)c1ccc2ccccc2c1,-2.29
C[C@]12CC[C@H](O)C[C@@H]1CC[C@@H]1[C@@H]2CC[C@]2(C)C(=O)CC[C@@H]12,-5.46
CC(C)NC(=O)c1ccc(C#Cc2ccncc2)cn1,-1.49
COc1nc(N)nc2c1ncn2[C@@H]1O[C@H](CO)[C@@H](O)[C@@H]1O,-0.71
NC(N)=NC(=O)c1cnccn1,3.61
Cc1c(C)c2c(c(C)c1O)CCC(C)(C(=O)O)O2 (centres unmarked),37.2
CO[C@@H](C(=O)N1Cc2[nH]nc(NC(=O)c3ccc(N4CCN(C)CC4)cc3)c2C1)c1ccccc1,-0.24
O=C1/C(=C/c2ccccc2)C(NC2CCCCC2)c2ccccc21 (centres unmarked),-1.99
Nc1nc(NCCNc2ncc(-n3ccnc3)c(-c3ccc(Cl)cc3Cl)n2)ccc1[N+](=O)[O-],-6.32
CC(C)OC(=O)Nc1cccc(Cl)c1,4.22
NCCNCCNCCN,-5.27
COc1cc(OC2CCN(C)CC2)ccc1Nc1ncc2c(n1)n(C1CCCC1)c(=O)n2C,3.67
O[C@@H]1CO[C@H]2[C@@H]1OC[C@@H]2O,-7.78
N[C@@H](Cc1ccc(I)cc1)C(=O)O,-2.02
